Results collected from several papers.
Numbered parts are unrelated; each lists some results of a single study. Changes are numbered by the printed parent chain.

Set 1
Target: Ras GTPase-activating protein-binding protein 1, C-terminal RGG region (G3BP1, Homo sapiens, UniProt Q13283)
Sequence of UniProt Q13283 (whole entry, looked up): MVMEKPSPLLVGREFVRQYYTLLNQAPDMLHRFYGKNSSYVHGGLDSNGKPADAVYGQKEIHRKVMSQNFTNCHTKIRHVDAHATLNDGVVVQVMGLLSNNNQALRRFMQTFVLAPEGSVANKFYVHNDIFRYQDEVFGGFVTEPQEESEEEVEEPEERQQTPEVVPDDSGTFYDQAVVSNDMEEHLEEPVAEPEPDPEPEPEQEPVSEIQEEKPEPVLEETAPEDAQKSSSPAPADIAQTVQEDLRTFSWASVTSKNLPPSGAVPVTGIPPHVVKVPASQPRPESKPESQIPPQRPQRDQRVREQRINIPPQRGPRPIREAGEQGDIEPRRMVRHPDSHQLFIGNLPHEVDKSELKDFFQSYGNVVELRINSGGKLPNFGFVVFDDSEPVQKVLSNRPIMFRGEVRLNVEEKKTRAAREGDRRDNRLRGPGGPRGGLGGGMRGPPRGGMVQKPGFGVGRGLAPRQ
Method: RNA Bind-n-Seq
Form: RNA
Medium: in vitro
Tested at: 1 µM
Notes: whole 134-nt RNA, ends assumed
With: 150 mM KCl
Baseline: input library
Direction: higher = stronger binding
Shared flanks, not repeated: GGGAGUUCUACAGUCCGACGAUC … UGGAAUUCUCGGGUGUCAAGG
| Strand | log2 enrichment |
| --- | --- |
| UCCUGUGCUACACAUCGUAUGUACCGAAUCGGGGUUUUUGGGGUGGGGAAAAAAAGGGGAAAGUAUUAUGUUACGCCGUUCGGAUCUGCA | 1.51 |
| ACCAUGAAGGUGGGCAUCUUUGGGAAGUGGGGCAAGGGGGGGAUAGGGAGGGGGGUAACACUUUGGGAACAGGUGGUCCCAGGUCGUUUC | -1.26 |
| UGGCCCUGGUGGCAUGCGGGGAGGAAGAGGUGGCCUCAUGGAUCGUGGGGGUCCCGGUGGAAUGUUCAGAGGUGGCCGUGGUGGAGACAG | 1.2 |
| CUCAAGUCCUGUGCUACACAUCGUAUGUACCGAAUCGGUUGGGGUUGGGUUGGAAAGUAUUAUGUUACGCCGUUCGGAUCUGCACUUCCA | -0.676 |
| CCUGUGCUACACAUCGUAUGUACCGAAUCGGGCCCCCCCGGCCCCCCCGGGCCCCCCCGGAAAGUAUUAUGUUACGCCGUUCGGAUCUGC | -1.02 |
| UUCAUUCCUUGGAAGAAGCUGUACCAUCGAUACCUGAUGAAUGAAGAGCAAGCUGUCAGCAAAGUGGACGGCAUCCUGUCUAACUGUGGC | -1.88 |
| UGGUGUUCAUAUUGCUGAUGUGAGCCAUUUUAUUAGGCCAGGAAAUGCCUUGGAUCAAGAAUCAGCCAGAAGAGGAACAACUGUGUAUCU | -1.04 |
| UUUUAGAAAGAGAAGGGGAAGAAAAUGAAGCCUUACAUAAGAUGAUUGCAAACGAGCAAAAGACUUCUCUCCCAAAUUUGUUCCAGGAUA | -2.05 |
| GUCCUGUGCUACACAUCGUAUGUACCGAAUCGGGUUUUUUUGGGAGGGAAAAAAAGGGAAAGUAUUAUGUUACGCCGUUCGGAUCUGCAC | -0.656 |
| UGGGAGGUGGAUUUUGUUUAUUUUUUUAGCUCAUUUCCAGGGGUGGGAAUUUUUUUUUAAUAUGUGUCAUGAAUAAAGUUGUCUUUGAAA | 3.79 |
| UCCUCAAGUCCUGUGCUACACAUCGUAUGUACCGAAUCGGGAGGGGAGGAGGAAAGUAUUAUGUUACGCCGUUCGGAUCUGCACUUCCAG | -0.645 |
| CUCAAGUCCUGUGCUACACAUCGUAUGUACCGAAUCGGGUGGGUGGGUUUGGGAAAGUAUUAUGUUACGCCGUUCGGAUCUGCACUUCCA | 1.7 |
| CACAGACAACACGCACCCACACAGACACAGAGGGAAGGGGUUGGGACGGGGACAGGGUGCACAGCAGGGCGGGGUAGGACCCCAGCCCCU | -0.709 |
| AAGUCCUGUGCUACACAUCGUAUGUACCGAAUCGGGAAAAAGGGAAAGGGAAAGGGAAAGUAUUAUGUUACGCCGUUCGGAUCUGCACUU | 0.67 |

Set 2
Target: Sal-like protein 4, full length isoform B (SALL4, Homo sapiens, UniProt Q9UJQ4-2, residues 1-616)
Method: universal PBM
Form: double-stranded DNA, one strand shown
Medium: in vitro
Tested at: not given
Notes: 8-mer, flanks averaged, mean of replicates
Direction: higher = stronger binding
Residues (chain): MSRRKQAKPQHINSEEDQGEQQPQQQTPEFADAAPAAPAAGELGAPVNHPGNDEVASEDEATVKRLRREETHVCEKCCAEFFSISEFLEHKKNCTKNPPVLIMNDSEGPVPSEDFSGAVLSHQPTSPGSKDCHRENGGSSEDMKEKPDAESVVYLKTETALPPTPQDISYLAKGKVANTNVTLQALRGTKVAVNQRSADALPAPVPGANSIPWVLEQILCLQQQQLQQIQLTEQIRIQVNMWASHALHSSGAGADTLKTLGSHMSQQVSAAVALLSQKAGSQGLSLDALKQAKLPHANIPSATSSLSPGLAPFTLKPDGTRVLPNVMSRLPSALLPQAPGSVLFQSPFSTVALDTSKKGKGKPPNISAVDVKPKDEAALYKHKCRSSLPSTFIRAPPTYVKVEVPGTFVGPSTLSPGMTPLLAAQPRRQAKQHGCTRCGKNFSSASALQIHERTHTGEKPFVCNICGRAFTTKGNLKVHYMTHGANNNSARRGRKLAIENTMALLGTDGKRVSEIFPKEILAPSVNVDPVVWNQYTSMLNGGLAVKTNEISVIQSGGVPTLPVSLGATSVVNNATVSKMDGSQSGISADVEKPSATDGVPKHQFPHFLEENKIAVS
| Strand | E-score |
| --- | --- |
| TGGGGCAA | -0.143 |
| ACGTCCCG | -0.363 |
| ATAAGCAT | 0.28 |
| ATCTGTTC | -0.0139 |
| AAAGTCAC | 0.144 |
| CCCTTGGC | -0.338 |
| ACCATTCG | 0.0722 |
| ATTTTCCC | 0.0981 |
| GATGTCAC | -0.0649 |
| AACCAGAG | -0.132 |
| AGCACTAA | 0.0918 |
| CCCAGATA | -0.0869 |
| AGATTTCG | -0.0193 |
| GTACATTA | 0.247 |
| CCTGTGCG | -0.216 |
| AGCCAATG | 0.017 |
| ATTACGAG | 0.198 |
| CGGCCTGA | -0.273 |
| AACATCTT | 0.099 |
| TAAACCTA | 0.145 |
| ATACGCAG | -0.00105 |
| CATCCTGC | -0.0625 |
| AAAAGGGA | 0.0942 |
| CGGCTTAG | -0.217 |
| ATGCCTCG | 0.0194 |

Set 3
Target: CCND2, cyclin fold, Cln2 fusion (human)
Method: yeast growth competition, sequencing
Medium: yeast
Notes: weak parent motif
Baseline: not given
Direction: higher = stronger binding
Starting sequence: CDT1 docking peptide (human); PPARRRLRLSVDE
| Variant | normalised enrichment score |
| --- | --- |
| PPARRALRLSVDE [R6A] | 0.254 |
| PAARRRLRLSVDE [P2A] | 0.309 |
| PPARRRLRLSVAE [D12A] | 0.845 |
| PPARKRLRLSVDE [R5K] | 0.15 |
| PPARRRLALSVDE [R8A] | 0.163 |
| APARRRLRLSVDE [P1A] | 0.297 |
| PPAARRLRLSVDE [R4A] | 0.268 |

Set 4
Target: RNA binding protein fox-1 homolog 2, RRM domain, GST-SBP tag (RBFOX2, Homo sapiens, UniProt O43251-10, residues 100-194)
Method: RNA Bind-n-Seq
Form: RNA
Medium: in vitro
Tested at: 365 nM
Notes: natural RNA segment, single round, ends assumed
Baseline: no-protein control
Direction: higher = stronger binding
Shared flanks, not repeated: GGGAGUUCUACAGUCCGACGAUC … UGGAAUUCUCGGGUGCCAA
Target sequence (chain): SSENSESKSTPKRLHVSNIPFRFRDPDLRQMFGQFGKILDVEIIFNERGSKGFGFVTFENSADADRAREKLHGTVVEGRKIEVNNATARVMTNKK
| Strand | RBNS enrichment (R) |
| --- | --- |
| CACUAACUGGUAAGGCUUAUUGUACAGUAUAUUGUCAGUAUUCUUCUGGUUCAGCAUACCUUAUAGUUCAUAUAUAACCUGUAUUAAUUGUAUAGAUUGUGCAUUAAAAG | 0.317 |
| UAGUCUUUGAAGCAAGUAUCCUGAUAGUUUAAGGCUUUGCAAUUUUAACUCCUUGAGGCCAGGCCAGAAGUGUUAGGAGCUAAGUAUGAAUGAACUGUGUAAUAAGAGAG | 0.729 |
| GUUAACAUGGGACCUUCUGUUUAGCUUCCUCUUGCUUCCCAAAGAUUUUAAGCAUUUUGUAAAUGUAUAAACUCACCUCUGGUAACAGUGGCCCAGACGCUGCUUUGUGC | 0.328 |
| UGGCACACCACUCCUUUCUGAUGCUUGUCCUCCUGCUUUCUGAGACUCUGCUGCCUCCAUGUCCUCUCUGGGACCUGACUCUCCACAGGGAGGGAGACUCCUUGUCCCAG | 0.674 |
| GGCAUGAUGGUUGCUACAGUGCUCUUUCUCCCAUGAAGUCUUUGCUUUUAUAUCAGUGCCUUAUCUGUUAAGCUCCUGGAGGAAAGCCCCCUAUUCUAGAUCUUUAUGUG | 0.863 |
| UCUGAUGUUCCGCCCCACUGUGAAGAGUGUGCUCGUUUUAAAUUCAUGUUGAUUCUUGUAAGCACUGGACUGUCUUCAUCAAGUAUUUCCCUACAGAACUCCUCAAGAAA | 0.717 |
| UUGCAUCUGCUUUUCCUGUAAGACUCCACUGUGCACUGGCAUCCAGAGAAGGUGUCUUUGGAGUUCACACAGCACACACUGUGCACAGAAGGCCUCCCCAUCUGGGAAAU | 0.458 |
| CAGGUGGCCCUCCACGUGAGGUCAUGGUCACAGCAUGGAGGCCUUGAGAGCCUGGCCAGGUGGCCCUCCGUGUGAGGUCAUGGUCACAGCAUAGUUUGGAGCUAGGGAGG | 30.4 |
| GGGCUUUAACCCUGUACAACGUCACCGAGAGCAACGCCUCCUACUUGGAUCCUGGAGCCAGUCCCUCCUCUCCCUGAGAUCUGCAUCCCUCUGAAAAAGCCUGGCUAAGG | 0.56 |
| UGGCCUCACCCUCCCACCCCAUGUAAAUAUUACUCUGUCCUCUGGGGGGCGCUCUAGGGAGCCCCUUGUGCAGAUGCUCUUUAAAUAAUAAAGGUGGUUUUGAUUAAUGG | 0.352 |
| UGACUUUUGAUUCCUUGAACCUUUUACUUACUUGAGGUGAGGAAAUGUCUGAUAAUCUGCAAAACAAAACCUACCAAAUGGAAUCAGGGGCGACAUCUCAGUCGGUCCGG | 0.371 |
| GAAUAUUUAUAGGCAAUACAGUCAAAGUUUCAAAAUAGCAUCACACAAAACAUGUUUAUAAAUGAACAGGAUGUAAUGUACAUAGAUGACAUUAAGAAAAUUUGUAUGAA | 0.316 |

Set 5
Target: ABI1, truncated, D143A, DHFR fusion (Arabidopsis thaliana)
Method: DHFR PCA, deep sequencing
Medium: yeast
Notes: methotrexate growth selection, single substitutions
With: (+)-ABA 58 µM
Baseline: wild-type fitted maximum
Direction: higher = stronger binding
Starting sequence: PYL1, truncated, DHFR fusion (Arabidopsis thaliana); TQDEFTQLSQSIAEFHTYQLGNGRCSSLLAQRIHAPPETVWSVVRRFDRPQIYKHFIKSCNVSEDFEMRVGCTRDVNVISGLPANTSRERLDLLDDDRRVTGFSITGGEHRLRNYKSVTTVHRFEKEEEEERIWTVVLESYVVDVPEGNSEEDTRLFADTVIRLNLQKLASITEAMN
| Variant | relative binding score [%] |
| --- | --- |
| V43S | 24.6 |
| R69H | 88.3 |
| E125S | 93.8 |
| V136C | 77.8 |
| H34E | 87.3 |
| E147M | 79.4 |
| S59R | 77.1 |
| D92C | 41.3 |
| R111M | 63 |
| L138H | 34.6 |
| D159N | 82.3 |
| T154V | 85.1 |
| D159Y | 10.7 |
| V161I | 94.1 |
| S27Y | 18.8 |

Other studies, line by line
| Substance | target | test | system | setting | how to read | quantity | value |
| --- | --- | --- | --- | --- | --- | --- | --- |
| PhoQ, residues 284 288 289 292 302 303 DDMDFR | PhoP, residues 12 14 15 18 19 IQFRS (Escherichia coli, UniProt P23836) | Sort-seq, refers to: YFP reporter | E. coli | PhoQ-PhoP variant library, with: 10 µM Mg2+ | baseline: high Mg2+ state, higher = stronger signaling | fold induction | 0.467 |

A few entries again (set 3):
| Variant | normalised enrichment score |
| --- | --- |
| PPARRALRLSVDE [R6A] | 0.254 |
| PAARRRLRLSVDE [P2A] | 0.309 |
| PPARRRLRLSVAE [D12A] | 0.845 |
| PPARKRLRLSVDE [R5K] | 0.15 |
| PPARRRLALSVDE [R8A] | 0.163 |
| APARRRLRLSVDE [P1A] | 0.297 |
| PPAARRLRLSVDE [R4A] | 0.268 |
